Published values gathered from unrelated publications.
Parts stem from different laboratories: compare values within a part only. Changes are numbered by the printed parent chain.

Study 1
Target: CCND3, cyclin fold, Cln2 fusion (human)
Method: yeast growth competition, sequencing
Medium: yeast
Setting: weak parent motif
Relative to: not given
Direction: higher = stronger binding
Starting sequence: SAMHD1 docking peptide (human); ASKSRVQLFKDDP; partner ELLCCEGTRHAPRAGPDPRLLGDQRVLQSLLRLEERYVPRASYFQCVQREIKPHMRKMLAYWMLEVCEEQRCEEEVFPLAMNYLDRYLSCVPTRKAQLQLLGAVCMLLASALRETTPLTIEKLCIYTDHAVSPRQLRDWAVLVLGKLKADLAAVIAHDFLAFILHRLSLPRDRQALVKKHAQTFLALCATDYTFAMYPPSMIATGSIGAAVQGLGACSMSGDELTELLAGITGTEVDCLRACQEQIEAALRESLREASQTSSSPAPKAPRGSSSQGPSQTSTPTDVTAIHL
Change	normalised enrichment score
S4F	0.13
S4H	0.0981
K3P	-0.117
S4C	0.288
R5T	-0.0261
V6N	0.136
D12H	0.0853
K10M	0.147
F9W	0.0795
K10G	0.101
F9C	0.347
D11I	0.227
K3Y	-0.0538
Q7T	0.193
S4L	0.06
K3G	0.025
S4M	0.055
K3E	-0.19
S4A	0.165
D11N	0.212
S2C	-0.0569
R5E	0.148
K10W	0.0341
L8P	-0.0905

Study 2
Target: NFE2, bZIP domain (human)
Method: DHFR protein complementation
Medium: yeast
Setting: single substitutions, most at no-binding floor
Relative to: wild-type JUN-FOS pair
Direction: higher = stronger binding
Starting sequence: JUN, bZIP domain (human); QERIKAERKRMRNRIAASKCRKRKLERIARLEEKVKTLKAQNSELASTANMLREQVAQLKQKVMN; partner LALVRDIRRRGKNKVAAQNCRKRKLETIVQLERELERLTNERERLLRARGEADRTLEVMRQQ
Change	binding fitness [natural log]
A57R	-1.37
T48I	-1.53
V35C	-1.47
S47F	-1.4
E33F	-1.46
E44N	-1.49
L52H	-1.48
L52W	-1.47
A46D	-1.51
S43H	-1.5
L31S	-1.45
M51K	-1.38
L52S	-1.52
T37W	-1.37
R53G	-1.41
N42L	-1.47

Study 3
Target: ABI1, truncated, D143A, DHFR fusion (Arabidopsis thaliana)
Method: DHFR PCA, deep sequencing
Medium: yeast
Setting: methotrexate growth selection, single substitutions
Added: (+)-ABA 58 µM
Relative to: wild-type fitted maximum
Direction: higher = stronger binding
Starting sequence: PYL1, truncated, DHFR fusion (Arabidopsis thaliana); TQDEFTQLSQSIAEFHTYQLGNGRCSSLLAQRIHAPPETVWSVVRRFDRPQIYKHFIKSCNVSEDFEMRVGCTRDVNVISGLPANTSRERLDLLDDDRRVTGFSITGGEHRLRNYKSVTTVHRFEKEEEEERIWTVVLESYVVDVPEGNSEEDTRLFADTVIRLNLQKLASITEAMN; partner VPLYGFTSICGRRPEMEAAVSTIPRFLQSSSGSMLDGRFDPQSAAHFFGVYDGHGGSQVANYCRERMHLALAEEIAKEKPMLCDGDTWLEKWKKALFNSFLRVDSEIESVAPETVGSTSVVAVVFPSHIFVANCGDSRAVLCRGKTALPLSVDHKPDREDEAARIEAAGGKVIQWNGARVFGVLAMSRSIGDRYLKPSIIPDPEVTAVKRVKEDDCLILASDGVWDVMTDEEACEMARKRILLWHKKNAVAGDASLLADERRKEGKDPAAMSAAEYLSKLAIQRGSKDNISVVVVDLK
Change	relative binding score [%]
R90V	80.2
F56Y	64
S117K	3.83
L94F	96.4
F47Y	38.4
R99Q	81.3
L94P	-5.54
E174R	59.7
E147V	82.2
T101H	37.8
R163P	0.103
H55Q	96.8
Q7N	87.7
L156T	84.9
K58N	70
V142T	78.5
E130V	88.9
A35W	-7.46

Study 4
Target: Sal-like protein 4, full length isoform A (SALL4, Homo sapiens, UniProt Q9UJQ4, residues 1-1053)
Sequence of UniProt Q9UJQ4 (whole entry, looked up): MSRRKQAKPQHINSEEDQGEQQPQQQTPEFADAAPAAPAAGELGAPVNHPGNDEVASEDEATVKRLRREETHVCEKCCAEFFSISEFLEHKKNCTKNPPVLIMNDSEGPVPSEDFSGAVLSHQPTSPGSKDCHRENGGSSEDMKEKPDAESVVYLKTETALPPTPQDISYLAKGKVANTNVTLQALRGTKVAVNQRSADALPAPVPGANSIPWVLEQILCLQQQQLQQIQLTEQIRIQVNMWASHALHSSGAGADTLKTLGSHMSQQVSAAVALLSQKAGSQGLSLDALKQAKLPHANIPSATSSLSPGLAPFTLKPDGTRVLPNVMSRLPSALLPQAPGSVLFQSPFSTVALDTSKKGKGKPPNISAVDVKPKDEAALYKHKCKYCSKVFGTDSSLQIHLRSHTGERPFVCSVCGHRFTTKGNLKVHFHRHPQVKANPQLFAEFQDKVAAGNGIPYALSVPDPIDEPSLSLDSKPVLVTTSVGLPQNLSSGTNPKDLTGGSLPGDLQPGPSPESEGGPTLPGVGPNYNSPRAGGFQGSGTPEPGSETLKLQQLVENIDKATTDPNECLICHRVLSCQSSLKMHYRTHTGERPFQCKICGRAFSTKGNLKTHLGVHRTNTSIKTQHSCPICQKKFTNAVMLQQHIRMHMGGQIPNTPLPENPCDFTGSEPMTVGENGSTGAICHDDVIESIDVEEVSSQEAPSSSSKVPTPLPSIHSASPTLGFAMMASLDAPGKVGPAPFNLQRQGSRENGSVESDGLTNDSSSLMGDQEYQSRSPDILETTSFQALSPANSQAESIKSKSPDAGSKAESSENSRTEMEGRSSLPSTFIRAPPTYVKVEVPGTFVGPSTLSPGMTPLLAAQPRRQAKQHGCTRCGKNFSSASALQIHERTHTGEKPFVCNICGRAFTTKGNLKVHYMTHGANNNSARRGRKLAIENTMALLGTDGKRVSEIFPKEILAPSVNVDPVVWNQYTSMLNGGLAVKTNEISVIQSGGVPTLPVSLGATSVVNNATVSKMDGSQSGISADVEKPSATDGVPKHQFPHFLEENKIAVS
Method: universal PBM
Molecule type: double-stranded DNA, one strand shown
Medium: in vitro
Concentration: 600 nM
Setting: 8-mer, flanks averaged, mean of replicates
Direction: higher = stronger binding
Oligonucleotide	E-score
CCTTGTAC	0.0822
TAACGCTA	0.135
CGGGTACC	-0.318
GTCATTCA	0.0992
CACGCCAG	-0.348
CCTGTGCC	-0.229
GCAAAGAC	0.0791
TGAACGCA	0.122
CAGGTATA	0.118
GGCTACAA	-0.0576
TAACCTTA	0.161
CGTGCGTA	-0.11
AAGCAGGT	-0.0348
TTCAAGAA	0.278
AACACTTA	0.234
AATGGTTA	0.144

Study 5
Target: Interferon regulatory factor 7, full length, phosphomimetic (IRF7, Homo sapiens, UniProt Q92985, residues 1-503, S471D/S472D/S475D/S476D/S477D/S483D/S484D/S487D)
Method: protein-binding microarray
Molecule type: double-stranded DNA, one strand shown
Medium: in vitro
Concentration: 2200 nM top
Setting: 60-bp whole probe
Added: salmon DNA 0.4 mg/ml
Relative to: random background probes
Direction: higher = stronger binding
Shared flanks, not repeated: GCCTAGCAC … GTCTTGATTCGCTTGACGCTGCTG
Residues (chain): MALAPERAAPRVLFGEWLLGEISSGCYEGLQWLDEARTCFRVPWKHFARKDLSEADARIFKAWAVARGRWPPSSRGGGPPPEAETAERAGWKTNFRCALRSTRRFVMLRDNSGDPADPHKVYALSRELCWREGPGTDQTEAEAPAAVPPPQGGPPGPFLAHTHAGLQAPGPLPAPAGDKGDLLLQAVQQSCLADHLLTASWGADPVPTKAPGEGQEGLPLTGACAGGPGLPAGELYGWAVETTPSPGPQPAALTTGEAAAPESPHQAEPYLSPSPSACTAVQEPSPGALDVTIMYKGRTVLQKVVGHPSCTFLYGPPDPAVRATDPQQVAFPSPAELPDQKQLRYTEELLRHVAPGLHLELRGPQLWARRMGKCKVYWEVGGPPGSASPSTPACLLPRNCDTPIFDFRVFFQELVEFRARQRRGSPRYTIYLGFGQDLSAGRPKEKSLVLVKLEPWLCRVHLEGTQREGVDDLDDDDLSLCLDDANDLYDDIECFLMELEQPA
Oligonucleotide	fitted relative affinity
TTAGATATCGGGTATCGATTGGTGCTA	0.295 z-score
TTAGGTCTCCTACGGCTTTAGTGCTAG	0.282 z-score
CACGGTCTCGGTCTCGGGACGTGCTAG	0.00151 z-score
TTCCTTTACTTTCTTTTTTTGTGCTAG	5.35 z-score
TTAGGTATCGGTCTCGGTCAGTGCTAG	0.544 z-score
TTAGGTTCACTTTTCCTTTAGTGCTAG	4.14 z-score
TTAGATATCGTGTATCGATTAGTGCTA	0.0748 z-score
CTGCCCTGGTTCCCCTGCCTGTGCTAG	-0.081 z-score
GACGATATCGGGGATCGAGACGTGCTA	-0.0324 z-score
GACGGTATCCTGTTCCTGACGTGCTAG	1.19 z-score
TCACTTTGGCCTCTAGGACTGTGCTAG	1.32 z-score
GACGATTTCAGTATCGAGAAGTGCTAG	0.622 z-score
GACGGTTTCGGGCTGGGGACGTGCTAG	3.47 z-score
GACGTTTTCAGACTGGAGACGTGCTAG	1.05 z-score
CTAATATTCATTTTATTCAAGTGCTAG	1.21 z-score
TTAGGTATCCTACTGGTTTAGTGCTAG	0.392 z-score
CCCAATTGTCTTTTCACTTTGTGCTAG	3.32 z-score
GTAGGTTTCCTTTTCCTTTAGTGCTAG	7.11 z-score
GACGGTTTCCGTTTCGGGACGTGCTAG	6.97 z-score

Repeated from above (study 1):
Change	normalised enrichment score
D12H	0.0853
K10M	0.147
F9W	0.0795
K10G	0.101
F9C	0.347
D11I	0.227
K3Y	-0.0538
Q7T	0.193
S4L	0.06
K3G	0.025
